Measurements pooled from the literature.
Numbered parts are unrelated; each lists some results of a single study.
Sequence of UniProt Q15831 (whole entry, looked up): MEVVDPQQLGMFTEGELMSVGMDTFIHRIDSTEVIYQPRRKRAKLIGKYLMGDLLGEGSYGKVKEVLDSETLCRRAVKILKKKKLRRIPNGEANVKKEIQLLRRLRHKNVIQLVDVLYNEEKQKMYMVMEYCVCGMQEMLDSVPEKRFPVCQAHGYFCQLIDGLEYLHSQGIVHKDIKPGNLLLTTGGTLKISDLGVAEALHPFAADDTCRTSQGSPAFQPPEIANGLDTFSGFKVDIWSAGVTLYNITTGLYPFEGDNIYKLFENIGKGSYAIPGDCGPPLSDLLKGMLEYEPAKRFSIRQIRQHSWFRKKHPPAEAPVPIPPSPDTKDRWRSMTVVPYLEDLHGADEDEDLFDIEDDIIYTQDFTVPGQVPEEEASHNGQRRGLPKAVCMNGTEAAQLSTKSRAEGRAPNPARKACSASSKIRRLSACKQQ
Sequence of UniProt Q12851 (whole entry, looked up): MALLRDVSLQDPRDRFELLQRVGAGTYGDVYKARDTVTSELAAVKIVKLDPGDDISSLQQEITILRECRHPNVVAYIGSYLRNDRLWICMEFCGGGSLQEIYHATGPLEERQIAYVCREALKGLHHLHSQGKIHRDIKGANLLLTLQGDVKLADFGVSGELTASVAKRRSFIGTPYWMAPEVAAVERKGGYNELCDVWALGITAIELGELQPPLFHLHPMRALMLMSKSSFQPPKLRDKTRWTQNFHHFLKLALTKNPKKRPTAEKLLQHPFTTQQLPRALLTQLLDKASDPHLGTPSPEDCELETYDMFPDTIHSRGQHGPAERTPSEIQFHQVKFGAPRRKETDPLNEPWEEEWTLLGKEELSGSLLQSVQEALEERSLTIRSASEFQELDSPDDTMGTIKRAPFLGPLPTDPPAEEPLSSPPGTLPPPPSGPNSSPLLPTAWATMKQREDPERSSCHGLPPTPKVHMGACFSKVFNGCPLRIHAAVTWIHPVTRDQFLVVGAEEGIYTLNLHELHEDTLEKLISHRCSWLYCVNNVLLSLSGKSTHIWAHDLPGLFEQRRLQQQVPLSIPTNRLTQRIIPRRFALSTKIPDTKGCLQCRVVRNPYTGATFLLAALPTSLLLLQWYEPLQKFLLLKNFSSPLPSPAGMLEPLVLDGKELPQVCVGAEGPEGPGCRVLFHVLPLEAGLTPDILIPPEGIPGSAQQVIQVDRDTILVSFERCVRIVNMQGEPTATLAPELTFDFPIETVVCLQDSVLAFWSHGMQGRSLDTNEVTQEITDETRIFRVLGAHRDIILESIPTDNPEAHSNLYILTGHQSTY
Sequence of UniProt Q13131 (whole entry, looked up): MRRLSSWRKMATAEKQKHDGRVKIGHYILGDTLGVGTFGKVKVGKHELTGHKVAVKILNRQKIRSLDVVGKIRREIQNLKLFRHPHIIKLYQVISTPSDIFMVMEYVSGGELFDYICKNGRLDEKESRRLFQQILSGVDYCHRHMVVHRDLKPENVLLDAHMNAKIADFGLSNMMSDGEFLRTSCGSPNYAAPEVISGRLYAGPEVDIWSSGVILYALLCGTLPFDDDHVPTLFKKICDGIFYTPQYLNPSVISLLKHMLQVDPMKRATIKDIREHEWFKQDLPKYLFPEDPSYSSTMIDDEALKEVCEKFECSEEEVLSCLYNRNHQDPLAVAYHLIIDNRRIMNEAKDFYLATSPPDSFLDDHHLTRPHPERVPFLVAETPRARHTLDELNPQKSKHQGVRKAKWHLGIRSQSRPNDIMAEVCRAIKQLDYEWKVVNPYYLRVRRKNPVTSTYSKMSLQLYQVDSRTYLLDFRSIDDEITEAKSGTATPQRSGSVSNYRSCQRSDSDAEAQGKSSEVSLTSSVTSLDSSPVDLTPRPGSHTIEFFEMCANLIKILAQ
Sequence of UniProt P68400 (whole entry, looked up): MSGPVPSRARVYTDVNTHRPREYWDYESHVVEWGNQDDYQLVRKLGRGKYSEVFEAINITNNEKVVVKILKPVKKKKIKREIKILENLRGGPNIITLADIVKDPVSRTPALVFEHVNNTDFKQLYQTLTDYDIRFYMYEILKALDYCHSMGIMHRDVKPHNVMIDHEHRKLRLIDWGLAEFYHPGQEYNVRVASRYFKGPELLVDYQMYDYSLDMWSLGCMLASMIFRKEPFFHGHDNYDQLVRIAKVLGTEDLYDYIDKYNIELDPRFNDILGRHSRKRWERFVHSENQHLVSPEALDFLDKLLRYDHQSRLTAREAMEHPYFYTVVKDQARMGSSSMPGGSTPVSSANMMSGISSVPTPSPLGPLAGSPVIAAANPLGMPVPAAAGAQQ

Sample 1
Structure (SMILES): C[C@@H]1CN(c2ccc(-c3cc(C(=O)NCCOCCOCCOCCOCCNC(=O)/C=C/c4[nH]cc(C(=O)N[C@@H](CC(N)=O)c5ccc(F)c(Cl)c5)c4-c4ccc(Cl)cc4F)ccc3F)cc2NC(=O)c2c[nH]c(=O)cc2C(F)(F)F)C[C@H](C)N1C
Read-out: thermal unfolding
Technique: differential scanning fluorimetry
Tested at: 5.5 µM
Direction: higher = more unfolded
WDR5: WD repeat-containing protein 5 (WDR5, Homo sapiens, UniProt P61964)
DCAF1: DDB1- and CUL4-associated factor 1 (DCAF1, Homo sapiens, UniProt Q9Y4B6)
Sequence of UniProt Q9Y4B6 (whole entry, looked up): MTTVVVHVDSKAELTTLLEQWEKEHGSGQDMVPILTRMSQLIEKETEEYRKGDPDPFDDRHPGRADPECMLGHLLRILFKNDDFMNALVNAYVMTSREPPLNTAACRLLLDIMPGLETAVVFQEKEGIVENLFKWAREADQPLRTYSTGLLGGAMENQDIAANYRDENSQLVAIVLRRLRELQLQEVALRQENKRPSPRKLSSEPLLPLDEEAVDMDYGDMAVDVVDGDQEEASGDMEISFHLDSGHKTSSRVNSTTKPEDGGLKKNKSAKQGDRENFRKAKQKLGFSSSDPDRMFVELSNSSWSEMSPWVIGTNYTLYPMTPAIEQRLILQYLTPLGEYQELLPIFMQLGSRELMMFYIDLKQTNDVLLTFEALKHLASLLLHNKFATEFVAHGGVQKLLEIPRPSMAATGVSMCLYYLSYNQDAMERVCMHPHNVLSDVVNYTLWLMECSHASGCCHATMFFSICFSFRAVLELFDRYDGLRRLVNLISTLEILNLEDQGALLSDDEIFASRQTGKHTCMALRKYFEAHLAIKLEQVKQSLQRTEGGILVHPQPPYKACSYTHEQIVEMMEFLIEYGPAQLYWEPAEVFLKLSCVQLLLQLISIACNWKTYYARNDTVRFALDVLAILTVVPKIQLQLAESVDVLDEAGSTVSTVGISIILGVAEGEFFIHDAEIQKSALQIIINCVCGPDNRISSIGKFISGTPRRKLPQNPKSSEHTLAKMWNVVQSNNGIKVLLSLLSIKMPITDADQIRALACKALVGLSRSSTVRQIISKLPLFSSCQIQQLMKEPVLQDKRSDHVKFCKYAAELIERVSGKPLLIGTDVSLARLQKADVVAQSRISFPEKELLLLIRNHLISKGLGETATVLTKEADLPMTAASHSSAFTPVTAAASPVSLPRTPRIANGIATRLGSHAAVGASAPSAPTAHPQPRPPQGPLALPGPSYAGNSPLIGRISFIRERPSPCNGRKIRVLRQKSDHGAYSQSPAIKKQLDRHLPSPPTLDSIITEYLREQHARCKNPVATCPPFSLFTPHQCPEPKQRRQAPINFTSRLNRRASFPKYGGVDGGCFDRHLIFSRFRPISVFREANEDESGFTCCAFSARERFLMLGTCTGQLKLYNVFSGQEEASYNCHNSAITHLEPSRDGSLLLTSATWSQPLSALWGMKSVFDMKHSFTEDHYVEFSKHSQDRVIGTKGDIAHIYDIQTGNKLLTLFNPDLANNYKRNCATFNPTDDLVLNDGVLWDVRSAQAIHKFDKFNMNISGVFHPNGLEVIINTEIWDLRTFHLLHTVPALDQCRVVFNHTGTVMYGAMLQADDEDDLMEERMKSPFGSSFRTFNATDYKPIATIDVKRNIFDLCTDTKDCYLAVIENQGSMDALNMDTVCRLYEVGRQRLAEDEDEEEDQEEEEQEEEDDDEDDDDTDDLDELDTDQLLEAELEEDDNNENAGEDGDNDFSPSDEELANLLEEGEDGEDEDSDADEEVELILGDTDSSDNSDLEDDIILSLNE
| target | setting | SYPRO Orange fluorescence [a.u.] |
| --- | --- | --- |
| WDR5 | 58.61 °C | 16200 |
| DCAF1 | 55.01 °C | 21500 |
| WDR5 | 39.2 °C | 14100 |
| DCAF1 | 76.21 °C | 48700 |
| WDR5 | 69.81 °C | 15900 |
| DCAF1 | 68.81 °C | 57200 |
| DCAF1 | 77.81 °C | 47300 |
| DCAF1 | 25.2 °C | 9010 |
| DCAF1 | 41.6 °C | 12100 |
| DCAF1 | 59.61 °C | 38800 |
| WDR5 | 32.6 °C | 12700 |

Sample 2
Structure (SMILES): COc1cc(-c2nc3ccc(C(=O)NCCCN(C)C)cc3n2C2CCC2)cc(OC)c1OC
Technique: NanoBRET
Tested at: 1 µM
| target | target occupancy |
| --- | --- |
| Serine/threonine-protein kinase STK11 (STK11, Homo sapiens, UniProt Q15831) | -1.56% |
| Tyrosine-protein kinase receptor Tie-1 (TIE1, Homo sapiens, UniProt P35590) | 10.1% |
| Tyrosine-protein kinase receptor UFO (AXL, Homo sapiens, UniProt P30530) | -0.89% |
| Mitogen-activated protein kinase kinase kinase kinase 2 (MAP4K2, Homo sapiens, UniProt Q12851) | 2.17% |
| Ribosomal protein S6 kinase alpha-1 (RPS6KA1, Homo sapiens, UniProt Q15418) | 1.41% |
| Ribosomal protein S6 kinase alpha-2 (RPS6KA2, Homo sapiens, UniProt Q15349) | 3.25% |
| Casein kinase II subunit alpha (CSNK2A1, Homo sapiens, UniProt P68400) | 0.01% |
| Mitogen-activated protein kinase kinase kinase 9 (MAP3K9, Homo sapiens, UniProt P80192) | 5.45% |
| Mitogen-activated protein kinase kinase kinase 12 (MAP3K12, Homo sapiens, UniProt Q12852) | 1.92% |
| Tyrosine-protein kinase TXK (TXK, Homo sapiens, UniProt P42681) | -0.49% |
| Mitogen-activated protein kinase kinase kinase 2 (MAP3K2, Homo sapiens, UniProt Q9Y2U5) | -2.04% |
| Homeodomain-interacting protein kinase 3 (HIPK3, Homo sapiens, UniProt Q9H422) | -2.17% |
| Ephrin type-A receptor 1 (EPHA1, Homo sapiens, UniProt P21709) | -0.5% |
| Casein kinase I isoform delta (CSNK1D, Homo sapiens, UniProt P48730) | -0.75% |
| Cyclin-dependent kinase 18, with cyclin Y (CDK18, Homo sapiens, UniProt Q07002) | 6.89% |
| Serine/threonine-protein kinase SIK3 (SIK3, Homo sapiens, UniProt Q9Y2K2) | -1.42% |
| Ephrin type-B receptor 1 (EPHB1, Homo sapiens, UniProt P54762) | 0.48% |
| Interleukin-1 receptor-associated kinase 3 (IRAK3, Homo sapiens, UniProt Q9Y616) | 1.23% |
| Mitogen-activated protein kinase kinase kinase 10 (MAP3K10, Homo sapiens, UniProt Q02779) | -6.53% |
| BMP-2-inducible protein kinase (BMP2K, Homo sapiens, UniProt Q9NSY1) | 1.39% |
| Dual specificity tyrosine-phosphorylation-regulated kinase 1A (DYRK1A, Homo sapiens, UniProt Q13627) | 4.37% |
| Serine/threonine-protein kinase ICK (CILK1, Homo sapiens, UniProt Q9UPZ9) | -6.15% |

Sample 3
SMILES: CN(C1COC1)C(C)(C)/C=C(\C#N)C(=O)N1CCC[C@H]1Cn1nc(-c2ccc(Oc3ccccc3)cc2F)c2c(N)ncnc21
Read-out: kinase activity
| target | setting | inhibition [%] |
| --- | --- | --- |
| Epidermal growth factor receptor (EGFR, Homo sapiens, UniProt P00533) | 0.1 µM | 4 |
| Serine/threonine-protein kinase pim-2 (PIM2, Homo sapiens, UniProt Q9P1W9) | 0.1 µM | -1 |
| Inhibitor of nuclear factor kappa-B kinase subunit alpha (CHUK, Homo sapiens, UniProt O15111) | 0.1 µM | -1 |
| Dual specificity protein kinase CLK1 (CLK1, Homo sapiens, UniProt P49759) | 0.1 µM | 2 |
| 5'-AMP-activated protein kinase catalytic subunit alpha-1, with beta1, gamma1 (PRKAA1, Homo sapiens, UniProt Q13131) | 1 µM | -3 |
| Tyrosine-protein kinase Fgr (FGR, Homo sapiens, UniProt P09769) | 1 µM | 65 |
| MAP kinase-activated protein kinase 5 (MAPKAPK5, Homo sapiens, UniProt Q8IW41) | 0.1 µM | 1 |
| Serine/threonine-protein kinase BRSK2 (BRSK2, Homo sapiens, UniProt Q8IWQ3) | 0.1 µM | 3 |
| Phosphatidylinositol 4,5-bisphosphate 3-kinase catalytic subunit delta isoform (PIK3CD, Homo sapiens, UniProt O00329) | 1 µM | 6 |
| Ephrin type-A receptor 8 (EPHA8, Homo sapiens, UniProt P29322) | 0.1 µM | 7 |
| Eukaryotic translation initiation factor 2-alpha kinase 3 (EIF2AK3, Homo sapiens, UniProt Q9NZJ5) | 1 µM | 2 |
| RAC-beta serine/threonine-protein kinase (AKT2, Homo sapiens, UniProt P31751) | 0.1 µM | 1 |
| Homeodomain-interacting protein kinase 2 (HIPK2, Homo sapiens, UniProt Q9H2X6) | 0.1 µM | 3 |

Sample 4
Structure (SMILES): CCN1/C(=C/C=C2\CCCC(/C=C/C3=[N+](CC)c4ccccc4C3(C)C)=C2NCCCCCCCCN2CCC(Nc3nc4ccccc4n3Cc3ccc(F)cc3)CC2)C(C)(C)c2ccccc21
Cell line: U-87 MG
Tested at: concentration not given
Relative to: DMSO
| test | log2 fold change |
| --- | --- |
| refers to: DUSP4 mRNA | -0.979 |
| refers to: PNPLA3 mRNA | -1.08 |
| refers to: KANSL1L mRNA | 0.991 |
| refers to: MAZ | -1.07 |
| refers to: SOST mRNA | -6.55 |
| refers to: SEPHS1 mRNA | -0.909 |
| refers to: SYTL1 mRNA | 1.59 |
| refers to: TMEM255A mRNA | -2.55 |
| refers to: SPOPL mRNA | 0.841 |
| refers to: ARMCX1 mRNA | 0.871 |
| refers to: TCF19 mRNA | -2.47 |
| refers to: TJP2 mRNA | -1.15 |
| refers to: HROB mRNA | -1.11 |
| refers to: SLC19A3 mRNA | -1.08 |
| refers to: PLCG2 mRNA | 3.42 |
| refers to: KDM6B mRNA | 1.36 |

For quick reference, copied from above (sample 2):
| target | target occupancy |
| --- | --- |
| Serine/threonine-protein kinase ICK (CILK1, Homo sapiens, UniProt Q9UPZ9) | -6.15% |
| BMP-2-inducible protein kinase (BMP2K, Homo sapiens, UniProt Q9NSY1) | 1.39% |
| Mitogen-activated protein kinase kinase kinase 12 (MAP3K12, Homo sapiens, UniProt Q12852) | 1.92% |
| Ribosomal protein S6 kinase alpha-2 (RPS6KA2, Homo sapiens, UniProt Q15349) | 3.25% |
| Ephrin type-A receptor 1 (EPHA1, Homo sapiens, UniProt P21709) | -0.5% |
| Mitogen-activated protein kinase kinase kinase 2 (MAP3K2, Homo sapiens, UniProt Q9Y2U5) | -2.04% |
| Mitogen-activated protein kinase kinase kinase kinase 2 (MAP4K2, Homo sapiens, UniProt Q12851) | 2.17% |
| Cyclin-dependent kinase 18, with cyclin Y (CDK18, Homo sapiens, UniProt Q07002) | 6.89% |
